Assay results of several laboratories.
Each line is one published result; not all experiments were run side by side. ± gives the spread as reported.

Compound | assay | test system | conditions | pKa1
COc1cc(-c2nc3ccccc3s2)cc(CN2Cc3cccc(n3)CNCc3cccc(n3)C2)c1O | UV-vis spectrophotometric titration, item: H4L3+/H3L2+ equilibrium | MeOH/water with NaCl | 50 µM, room temperature, NaCl 0.1 M, MeOH ≤20% v/v | 5.14
C(=NNC1=NCc2ccccc2-c2c1[nH]c1ccccc21)c1ccccn1 | UV-vis titration | DMSO-water 30 to 70% w/w | 298 K, ionic strength 0.10 M KCl | 2.51 ± 0.01
COc1cc(-c2nc3ccccc3s2)cc(CN2CCN(CC(=O)O)CCN(CC(=O)O)CC2)c1O | UV-Vis pH titration | – | 25 °C, ionic strength 0.1 M NaCl | 3.83
COc1cc(-c2nc3ccccc3s2)cc(CN2Cc3cccc(n3)CN(C)Cc3cccc(n3)C2)c1O | UV-vis spectrophotometric titration, item: H4L3+/H3L2+ equilibrium | MeOH/water with NaCl | 50 µM, room temperature, NaCl 0.1 M, MeOH ≤20% v/v | 4.8
O=C(O)[C@@H]1C[C@@H](O)CN1C(=O)[C@@H]1CCCN1 | potentiometric titration | water | 37 °C, 0.15 mol/dm3 NaCl | < 2
COc1cc(-c2nc3ccccc3s2)cc(CN(C)Cc2ccccn2)c1O | – | methanol-water | 50 µM, 0.1 M NaCl | 1.94
COc1cc(-c2nc3ccccc3s2)cc(CN2CCN(CC(=O)OC(C)C)CCN(CC(=O)OC(C)C)CC2)c1O | UV-Vis pH titration | – | 25 °C, ionic strength 0.1 M NaCl | 5.09
NCC(=O)N1CCC[C@H]1C(=O)N1C[C@H](O)C[C@H]1C(=O)O | potentiometric titration | water | 25 °C, 0.15 mol/dm3 NaCl | 2.42
COc1cc(-c2nc3ccccc3s2)cc(CN2CCN(C)CCN(C)CC2)c1O | UV-vis spectrophotometric titration, item: H4L3+/H3L2+ equilibrium | MeOH/water with NaCl | 50 µM, room temperature, NaCl 0.1 M, MeOH ≤20% v/v | 3.78
CCOC(=O)CN1CCN(CC(=O)OCC)CCN(Cc2cc(-c3nc4ccccc4s3)cc(OC)c2O)CC1 | UV-Vis pH titration | – | 25 °C, ionic strength 0.1 M NaCl | 4.78

Repeated from above:
Compound | assay | test system | conditions | pKa1
COc1cc(-c2nc3ccccc3s2)cc(CN(C)Cc2ccccn2)c1O | – | methanol-water | 50 µM, 0.1 M NaCl | 1.94
